Experimental data of several laboratories.
Lines come from different studies, so protocols differ. Values joined by “and” are separate records of one study, mostly repeats; a detail may differ. ± marks the error that the study gave.
FFAR4: Free fatty acid receptor 4 (FFAR4, Homo sapiens, UniProt Q5NUL3)
Chain of UniProt Q5NUL3 (whole entry, looked up): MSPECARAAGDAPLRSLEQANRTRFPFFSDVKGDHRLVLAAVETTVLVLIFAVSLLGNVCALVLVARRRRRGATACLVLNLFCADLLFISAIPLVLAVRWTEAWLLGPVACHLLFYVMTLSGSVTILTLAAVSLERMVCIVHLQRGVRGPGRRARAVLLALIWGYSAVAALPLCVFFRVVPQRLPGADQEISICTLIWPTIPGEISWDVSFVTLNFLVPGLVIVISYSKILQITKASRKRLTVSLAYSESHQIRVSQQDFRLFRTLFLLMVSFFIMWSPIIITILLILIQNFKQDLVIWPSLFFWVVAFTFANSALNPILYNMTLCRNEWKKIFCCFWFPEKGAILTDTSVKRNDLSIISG
Alpha-amylase: Alpha-amylase (Bos taurus, UniProt Q3MHH8)
Trypanothione synthetase: Trypanothione synthetase (Trypanosoma brucei brucei, UniProt Q8IEX1)
Chain of UniProt P61073 (whole entry, looked up): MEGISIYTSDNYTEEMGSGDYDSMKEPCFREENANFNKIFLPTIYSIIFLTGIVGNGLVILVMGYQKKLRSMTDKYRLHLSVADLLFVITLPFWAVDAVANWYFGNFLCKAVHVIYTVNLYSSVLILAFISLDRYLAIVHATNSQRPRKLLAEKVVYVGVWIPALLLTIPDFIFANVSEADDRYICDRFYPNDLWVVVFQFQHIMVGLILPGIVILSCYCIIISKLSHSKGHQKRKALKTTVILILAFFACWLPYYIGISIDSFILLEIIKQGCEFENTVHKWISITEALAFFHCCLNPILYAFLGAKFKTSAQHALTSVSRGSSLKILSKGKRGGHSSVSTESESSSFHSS
Chain of UniProt Q93009 (whole entry, unmodified, looked up): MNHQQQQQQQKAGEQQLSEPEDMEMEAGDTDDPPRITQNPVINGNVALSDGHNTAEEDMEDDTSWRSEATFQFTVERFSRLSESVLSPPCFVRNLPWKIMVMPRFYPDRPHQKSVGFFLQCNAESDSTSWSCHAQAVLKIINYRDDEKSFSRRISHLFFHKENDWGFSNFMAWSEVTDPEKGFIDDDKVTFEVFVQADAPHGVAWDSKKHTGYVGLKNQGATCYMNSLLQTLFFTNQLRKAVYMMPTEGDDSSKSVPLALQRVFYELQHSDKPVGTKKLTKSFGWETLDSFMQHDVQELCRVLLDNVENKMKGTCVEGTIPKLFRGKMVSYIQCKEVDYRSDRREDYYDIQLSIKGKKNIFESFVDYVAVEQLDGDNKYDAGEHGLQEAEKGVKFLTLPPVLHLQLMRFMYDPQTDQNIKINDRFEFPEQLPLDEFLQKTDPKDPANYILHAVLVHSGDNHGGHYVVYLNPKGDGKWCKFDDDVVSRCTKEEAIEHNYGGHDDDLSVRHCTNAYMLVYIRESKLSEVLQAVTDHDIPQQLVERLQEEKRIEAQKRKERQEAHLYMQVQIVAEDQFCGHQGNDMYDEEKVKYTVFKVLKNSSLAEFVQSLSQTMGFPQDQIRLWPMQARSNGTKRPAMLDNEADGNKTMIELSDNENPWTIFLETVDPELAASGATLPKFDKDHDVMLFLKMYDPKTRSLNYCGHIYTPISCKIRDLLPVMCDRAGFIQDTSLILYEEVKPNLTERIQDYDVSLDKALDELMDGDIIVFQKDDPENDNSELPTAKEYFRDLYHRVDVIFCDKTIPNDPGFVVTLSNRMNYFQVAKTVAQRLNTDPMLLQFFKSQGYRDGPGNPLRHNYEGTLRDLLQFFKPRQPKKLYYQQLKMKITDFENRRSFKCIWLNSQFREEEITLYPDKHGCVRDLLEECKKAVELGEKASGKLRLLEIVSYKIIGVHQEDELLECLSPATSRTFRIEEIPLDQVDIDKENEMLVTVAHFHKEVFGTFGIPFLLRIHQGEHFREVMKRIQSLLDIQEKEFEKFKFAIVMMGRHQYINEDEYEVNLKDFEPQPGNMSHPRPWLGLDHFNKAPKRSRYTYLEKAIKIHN
Chain of UniProt O60307 (whole entry, looked up): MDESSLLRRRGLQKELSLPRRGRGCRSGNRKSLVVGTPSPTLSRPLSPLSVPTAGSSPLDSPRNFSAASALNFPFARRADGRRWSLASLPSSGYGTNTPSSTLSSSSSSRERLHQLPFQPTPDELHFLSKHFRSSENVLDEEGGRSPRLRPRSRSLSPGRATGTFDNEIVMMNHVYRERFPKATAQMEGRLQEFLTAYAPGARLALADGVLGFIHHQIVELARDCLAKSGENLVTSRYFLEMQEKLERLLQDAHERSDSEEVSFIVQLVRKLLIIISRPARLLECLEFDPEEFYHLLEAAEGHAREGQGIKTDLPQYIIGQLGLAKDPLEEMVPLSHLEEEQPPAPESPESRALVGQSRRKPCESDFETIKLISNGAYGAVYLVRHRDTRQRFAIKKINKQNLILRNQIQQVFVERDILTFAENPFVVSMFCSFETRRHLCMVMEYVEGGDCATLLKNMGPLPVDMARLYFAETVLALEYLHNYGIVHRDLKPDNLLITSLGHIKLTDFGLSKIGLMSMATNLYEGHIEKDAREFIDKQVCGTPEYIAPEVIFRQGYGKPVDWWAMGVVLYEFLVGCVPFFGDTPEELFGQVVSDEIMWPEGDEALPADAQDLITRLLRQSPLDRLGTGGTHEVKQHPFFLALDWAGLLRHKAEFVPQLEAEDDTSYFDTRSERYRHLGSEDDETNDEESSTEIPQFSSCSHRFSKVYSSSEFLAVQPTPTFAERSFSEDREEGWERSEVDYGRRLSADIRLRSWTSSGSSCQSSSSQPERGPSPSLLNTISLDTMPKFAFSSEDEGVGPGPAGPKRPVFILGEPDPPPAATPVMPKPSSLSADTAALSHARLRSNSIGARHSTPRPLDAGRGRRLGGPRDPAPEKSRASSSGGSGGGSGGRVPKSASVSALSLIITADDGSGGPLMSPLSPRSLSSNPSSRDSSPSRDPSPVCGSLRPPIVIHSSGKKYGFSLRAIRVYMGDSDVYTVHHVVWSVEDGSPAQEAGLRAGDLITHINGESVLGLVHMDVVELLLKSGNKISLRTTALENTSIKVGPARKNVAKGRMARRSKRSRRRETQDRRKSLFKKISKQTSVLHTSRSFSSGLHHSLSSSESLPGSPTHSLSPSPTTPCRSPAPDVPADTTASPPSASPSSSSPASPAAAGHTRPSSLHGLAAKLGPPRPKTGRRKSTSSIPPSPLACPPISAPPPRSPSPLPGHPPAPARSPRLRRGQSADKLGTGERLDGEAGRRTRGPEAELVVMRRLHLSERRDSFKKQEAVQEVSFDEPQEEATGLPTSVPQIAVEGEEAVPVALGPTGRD
Chain of UniProt Q9UHD2 (whole entry, looked up): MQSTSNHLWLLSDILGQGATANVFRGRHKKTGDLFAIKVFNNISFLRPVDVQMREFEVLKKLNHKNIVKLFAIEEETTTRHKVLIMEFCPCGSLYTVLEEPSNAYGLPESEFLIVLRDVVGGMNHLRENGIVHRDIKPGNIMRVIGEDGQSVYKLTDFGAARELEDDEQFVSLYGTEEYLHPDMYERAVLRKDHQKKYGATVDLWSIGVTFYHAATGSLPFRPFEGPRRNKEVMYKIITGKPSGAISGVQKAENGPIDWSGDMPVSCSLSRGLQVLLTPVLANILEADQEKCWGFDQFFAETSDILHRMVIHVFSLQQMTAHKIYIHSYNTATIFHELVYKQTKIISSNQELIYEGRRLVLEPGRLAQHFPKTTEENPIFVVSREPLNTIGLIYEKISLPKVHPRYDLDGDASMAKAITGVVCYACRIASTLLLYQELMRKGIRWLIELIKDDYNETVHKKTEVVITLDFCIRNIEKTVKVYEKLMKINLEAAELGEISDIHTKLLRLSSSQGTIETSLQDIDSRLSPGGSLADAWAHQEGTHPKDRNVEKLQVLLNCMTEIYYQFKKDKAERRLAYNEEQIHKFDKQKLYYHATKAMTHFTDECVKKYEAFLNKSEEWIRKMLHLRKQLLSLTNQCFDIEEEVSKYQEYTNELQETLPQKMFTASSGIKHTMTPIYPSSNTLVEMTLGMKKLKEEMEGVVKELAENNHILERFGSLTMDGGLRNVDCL
Chain of UniProt Q8N884 (whole entry, looked up): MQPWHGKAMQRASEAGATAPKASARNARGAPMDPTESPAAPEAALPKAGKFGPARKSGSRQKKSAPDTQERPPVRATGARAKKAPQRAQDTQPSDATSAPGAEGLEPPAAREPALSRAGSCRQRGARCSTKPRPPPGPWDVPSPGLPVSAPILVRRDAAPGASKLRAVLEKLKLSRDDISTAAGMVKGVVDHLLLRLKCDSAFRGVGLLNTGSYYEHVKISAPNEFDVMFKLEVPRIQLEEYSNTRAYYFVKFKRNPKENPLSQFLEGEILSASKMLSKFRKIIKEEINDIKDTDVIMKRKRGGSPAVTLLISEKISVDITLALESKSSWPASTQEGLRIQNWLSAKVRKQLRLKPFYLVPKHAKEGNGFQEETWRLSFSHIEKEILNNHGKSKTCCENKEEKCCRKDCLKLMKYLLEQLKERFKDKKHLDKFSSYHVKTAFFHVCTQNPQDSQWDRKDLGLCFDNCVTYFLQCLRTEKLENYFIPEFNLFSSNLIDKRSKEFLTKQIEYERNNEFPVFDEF
Chain of UniProt P18405 (whole entry, looked up): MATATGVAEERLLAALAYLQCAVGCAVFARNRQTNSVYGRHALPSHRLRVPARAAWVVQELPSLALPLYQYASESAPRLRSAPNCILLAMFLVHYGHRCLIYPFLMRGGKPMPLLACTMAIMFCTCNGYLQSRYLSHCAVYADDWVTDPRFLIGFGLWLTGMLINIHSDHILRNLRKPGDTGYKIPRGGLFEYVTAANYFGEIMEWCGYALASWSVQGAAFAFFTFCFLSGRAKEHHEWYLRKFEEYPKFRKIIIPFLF
Chain of UniProt Q5BJF2 (whole entry, looked up): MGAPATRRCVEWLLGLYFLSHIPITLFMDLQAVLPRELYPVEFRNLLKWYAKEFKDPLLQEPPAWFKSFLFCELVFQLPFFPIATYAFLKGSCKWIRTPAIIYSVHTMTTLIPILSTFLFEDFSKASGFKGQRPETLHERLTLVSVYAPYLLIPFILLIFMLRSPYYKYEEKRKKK

SMILES | target | assay | system | setting | how to read | inhibition
O=C(C[C@@H](C(F)F)n1ccc(F)n1)N1CCC(O)(Cn2cnc3c(cnn3-c3ccc(F)cc3)c2=O)CC1 | Ubiquitin carboxyl-terminal hydrolase 7 (USP7, Homo sapiens, UniProt Q93009, V517F) | enzyme activity, inhibitor | – | 50 µM | – | 66.2% and 74.1%
Cc1cc(-c2ccnc3[nH]cc(F)c23)cc(F)c1[C@@]1(O)[C@H](C)CN(C2CCS(=O)(=O)CC2)C[C@@H]1C | Rho-associated protein kinase 1 (ROCK1, Homo sapiens, UniProt Q13464) | ATP probe binding, KiNativ | HEK293T cell lysate | 10 µM | – | 40.6%
CC(C)CCNc1cc(=O)[nH]c(=O)[nH]1 | FFAR4 | antagonist, β-arrestin recruitment | CHO cells | 10 µM, with: 4 µM TUG-891 | – | 24 ± 8%
CC1=NCCNC(=O)C1=NNc1ccc(S(N)(=O)=O)cc1 | Alpha-amylase | enzyme activity, inhibitor, glucose oxidase | – | 50 µg/mL, with: dextrin | – | 10.9%
O=C1c2c(O)cc(O)cc2O[C@H](c2cc(O)c(O)c(O)c2)[C@H]1O | Ubiquitin carboxyl-terminal hydrolase 51 (USP51, Homo sapiens, UniProt Q70EK9) | inhibitor | – | 1 µM, 1 h preincubation, with: Ub-AMC 250 nM | – | 100%
CC1=NNC(=O)C1=NNc1ccc(S(N)(=O)=O)cc1 | Alpha-amylase | enzyme activity, inhibitor, glucose oxidase | – | 50 µg/mL, with: dextrin | – | 12.9%
[2H]c1cc(C)c(NC(=O)c2cnc(Nc3cc(N4CCCCC4)nc(C)n3)s2)c(Cl)c1 | Tyrosine-protein kinase ABL2 (ABL2, Homo sapiens, UniProt P42684) | – | – | 0.0001 µM | – | > 50%
CN(C(=O)n1cnc(-c2ccc[n+]([O-])c2)c1)C1CCCCC1 | Sigma intracellular receptor 2 (TMEM97, Homo sapiens, UniProt Q5BJF2) | – | – | 10 µM | – | 19.5%
O=C(NO)c1ccc(CN2CCCCc3ccccc32)c(F)c1 | Histamine H1 receptor (HRH1, Homo sapiens, UniProt P35367) | radioligand binding, radioligand displacement | – | 10 µM, mean of replicates | – | 30.2%
O=C(Nc1cccc2c(=O)cc(-c3nnn[nH]3)oc12)c1ccc(OCCCCc2ccccc2)cc1 | Volume-regulated anion channel subunit LRRC8C, part LRRC8A IL1 chimera (LRRC8C, Homo sapiens, UniProt Q8TDW0, E6A) | ion current, inhibitor, whole-cell patch clamp | HCT LRRC8-/- cells | 1 µM, -100 mV | – | 74.2% and 80.5% and 66.8% and 60.2% and 59.4%
CNC(=O)CN1C(=O)Cc2c([nH]c3ccc(Br)cc23)-c2ccc(Cl)cc21 | Trypanothione synthetase | enzyme activity, inhibitor, BIOMOL Green | – | 30 µM | – | 44.4 ± 3.6%
CC(C)(C)CNc1cc(=O)[nH]c(=O)[nH]1 | FFAR4 | antagonist, β-arrestin recruitment | CHO cells | 10 µM, with: 4 µM TUG-891 | – | 23 ± 6%
O=C(CN1C(=O)Cc2c([nH]c3ccc(Br)cc23)-c2ccc(Cl)cc21)N1CCCCC1 | Trypanothione synthetase | enzyme activity, inhibitor, BIOMOL Green | – | 30 µM | – | 19.9 ± 2.5%
COc1ccc(-c2c(C)nn3c(N4CCN(c5ccccn5)CC4)cc(C)nc23)cc1OC | C-X-C chemokine receptor type 4 (CXCR4, Homo sapiens, UniProt P61073) | arrestin recruitment, antagonist, DiscoverX arrestin | – | 30 µM | baseline: control | -1.69% and -1.24%
Cn1cc(-c2cnc3ccc(NC(=O)Nc4ccc(F)c(Br)c4)cc3n2)cn1 | Serine/threonine-protein kinase TBK1 (TBK1, Homo sapiens, UniProt Q9UHD2) | kinase binding, KiNativ profiling, item: Lys1 peptide | PANC-1 lysate | 1.25 µM | – | 2.4%
CCCCCCCCCNc1cc(=O)n(C)c(=O)[nH]1 | FFAR4 | antagonist, β-arrestin recruitment | CHO cells | 10 µM, with: 4 µM TUG-891 | – | 17 ± 2%
Cn1cnc(Br)c1C1=CN(c2ncnc3[nH]cnc23)CCS1 | Protein kinase C gamma type (PRKCG, Homo sapiens, UniProt P05129) | enzyme activity | – | 0.05 µM | – | 25.7%
CCN1CCN(Cc2ccc(NC(=O)c3ccc(C)c(/C=C/c4cnc5[nH]ccc5c4OC)c3)cc2C(F)(F)F)CC1 | Microtubule-associated serine/threonine-protein kinase 3 (MAST3, Homo sapiens, UniProt O60307) | – | A-375 | 0.5 µM | – | -14.6%

SMILES | target | assay | system | setting | how to read | inhibition
COc1ccc(F)cc1C(=O)NCc1ccc(-c2nn([C@@H](C)C(F)(F)F)c(N)c2C(N)=O)cc1 | STE20/SPS1-related proline-alanine-rich protein kinase (STK39, Homo sapiens, UniProt Q9UEW8) | target engagement, competitive chemoproteomics | human PBMCs | 1 µM | – | 11.3%
CC[C@@H]1[C@H](F)C(=O)N[C@@H]1COc1nccc2cc(C(N)=O)c(OC)cc12 | TRAF2 and NCK-interacting protein kinase (TNIK, Homo sapiens, UniProt Q9UKE5) | ATP probe binding, KiNativ profiling, item: Lys1 probe site | THP-1 cell lysate | 0.01 mM | – | -2.8%
CC1=NOC(=O)C1=NNc1ccc(S(N)(=O)=O)cc1 | Alpha-amylase | enzyme activity, inhibitor, glucose oxidase | – | 50 µg/mL, with: dextrin | – | 9.4%
O=c1[nH]c(NCCc2ccc(Br)cc2)c(Br)c(=O)[nH]1 | FFAR4 | antagonist, β-arrestin recruitment | CHO cells | 10 µM, with: 4 µM TUG-891 | – | 14 ± 5%
CC1=NN(c2ccccc2)C(=O)C1=NNc1ccc(S(N)(=O)=O)cc1 | Alpha-amylase | enzyme activity, inhibitor, glucose oxidase | – | 500 µg/mL, with: dextrin | – | 27.4%
CCCCCCN(C)c1cc(=O)[nH]c(=O)[nH]1 | FFAR4 | antagonist, β-arrestin recruitment | CHO cells | 10 µM, with: 4 µM TUG-891 | – | 16 ± 13%
Cc1nn(-c2nc3c(F)cc(F)cc3s2)c(O)c1C(c1ccccc1C(F)(F)F)c1c(C)nn(-c2nc3c(F)cc(F)cc3s2)c1O | Cyclic GMP-AMP synthase, catalytic domain; with DNA (CGAS, Homo sapiens, UniProt Q8N884) | cGAS phase separation, inhibitor | – | 25 µM | – | 93.1%
COc1ccc(S(=O)(=O)N(CC(=O)NO)CC(C)C)cc1 | Matrix metalloproteinase-9 (MMP9, Homo sapiens, UniProt P14780) | inhibitor | – | 0.1 µM | – | 22.1 ± 0.804%
C[C@]12C=CC(=O)N[C@@H]1CC[C@@H]1[C@@H]2CC[C@]2(C)[C@@H](C(=O)Nc3cc(C(F)(F)F)ccc3C(F)(F)F)CC[C@@H]12 | 3-oxo-5-alpha-steroid 4-dehydrogenase 1 (SRD5A1, Homo sapiens, UniProt P18405) | HPTLC DHT detection | HaCaT | 1 µM | – | inhibited
O=c1cc(NCCCCc2ccccc2)[nH]c(=O)[nH]1 | FFAR4 | antagonist, β-arrestin recruitment | CHO cells | 10 µM, with: 4 µM TUG-891 | – | 21 ± 3%
CC1=NN(c2cccc(C)c2)C(=O)C1=NNc1ccc(S(N)(=O)=O)cc1 | Alpha-amylase | enzyme activity, inhibitor, glucose oxidase | – | 100 µg/mL, with: dextrin | – | 21.9%
NC(=O)CN1C(=O)Cc2c([nH]c3ccc(Br)cc23)-c2ccc(Cl)cc21 | Trypanothione synthetase | enzyme activity, inhibitor, BIOMOL Green | – | 30 µM | – | 14.5 ± 5.5%
Cc1ccc(C(=O)Nc2ccc3ccccc3c2)o1 | Voltage-dependent T-type calcium channel subunit alpha-1G (CACNA1G, Homo sapiens, UniProt O43497) | ion current, whole-cell patch-clamp | – | 10 µM, hCav3.1 | – | 11.7%
O=C(O)CCCCCNc1cc(=O)[nH]c(=O)[nH]1 | FFAR4 | antagonist, β-arrestin recruitment | CHO cells | 10 µM | – | 16 ± 2%
CC1=NNC(=S)NC(=O)C1/N=N/c1ccc(S(N)(=O)=O)cc1 (centres unmarked) | Alpha-amylase | enzyme activity, inhibitor, glucose oxidase | – | 10 µg/mL, with: dextrin | – | 11.9 ± 0.000742%
CC(C)(C)CCNc1cc(=O)[nH]c(=O)[nH]1 | FFAR4 | antagonist, β-arrestin recruitment | CHO cells | 10 µM, with: 4 µM TUG-891 | – | 18 ± 5%
CC1=NN(c2cccc([N+](=O)[O-])c2)C(=O)C1=NNc1ccc(S(N)(=O)=O)cc1 | Alpha-amylase | enzyme activity, inhibitor, glucose oxidase | – | 10 µg/mL, with: dextrin | – | 5.7582 ± 0.000477%

Excerpt of the above:
SMILES | target | assay | system | setting | how to read | inhibition
CC1=NN(c2ccccc2)C(=O)C1=NNc1ccc(S(N)(=O)=O)cc1 | Alpha-amylase | enzyme activity, inhibitor, glucose oxidase | – | 500 µg/mL, with: dextrin | – | 27.4%
CCCCCCN(C)c1cc(=O)[nH]c(=O)[nH]1 | FFAR4 | antagonist, β-arrestin recruitment | CHO cells | 10 µM, with: 4 µM TUG-891 | – | 16 ± 13%
Cc1nn(-c2nc3c(F)cc(F)cc3s2)c(O)c1C(c1ccccc1C(F)(F)F)c1c(C)nn(-c2nc3c(F)cc(F)cc3s2)c1O | Cyclic GMP-AMP synthase, catalytic domain; with DNA (CGAS, Homo sapiens, UniProt Q8N884) | cGAS phase separation, inhibitor | – | 25 µM | – | 93.1%
COc1ccc(S(=O)(=O)N(CC(=O)NO)CC(C)C)cc1 | Matrix metalloproteinase-9 (MMP9, Homo sapiens, UniProt P14780) | inhibitor | – | 0.1 µM | – | 22.1 ± 0.804%
